Experimental data from different studies.
Parts stem from different laboratories: compare values within a part only.

Set 1 — method: protein-binding microarray; molecule type: double-stranded DNA, one strand shown; medium: in vitro; tested at: 940 nM top; notes: 60-bp whole probe; added: salmon DNA 0.4 mg/ml; relative to: random background probes; reading: higher = stronger binding; endpoint: fitted relative affinity; shared flanks, not repeated: GCCTAGCAC … GTCTTGATTCGCTTGACGCTGCTG
Target: Interferon regulatory factor 5, full length, phosphomimetic (IRF5, Homo sapiens, UniProt Q13568-2, residues 1-514, S451D/S453D/S456D/S462D)
TTAGGACTGGATTTTCGGTTAGTGCTA: 0.0699 z-score
GACGAAATGGGGTTTCGAGACGTGCTA: 2.4 z-score
TTAGATTTCGGGTTTCGATCAGTGCTA: 5.13 z-score
TTAGAACTGAGTCTCGAATAGTGCTAG: 0.563 z-score
TCATCTTTTCATTACTGACTGTGCTAG: 1.37 z-score
TCATGTTTGGGCATTTTTACTGTGCTA: 0.0479 z-score
TCATCTTTTCTGTTGTCACTGTGCTAG: 1.95 z-score
GACGATCTCAGTCTCGAGGCGTGCTAG: 0.743 z-score
TTACAACTGAGTATCGATTAGTGCTAG: 4.9 z-score
GACGGTATCCTTTTCCTTACGTGCTAG: 0.432 z-score
GACGGTATTGGGTATCGGGACGTGCTA: 1.79 z-score
TTAGATATCAGTCTAGATTAGTGCTAG: -0.0312 z-score
TTCTCTAACCTCTCTAATAAAGTGCTA: 1.29 z-score
TTAGGTTTCCTTTCCTTTTAGTGCTAG: 2.12 z-score
CGACATCTGCAAGATCCACAAGTGCTA: -0.386 z-score
GAGTGTTTCTTCTGCTGACAGTGCTAG: 0.994 z-score
TTAGTACTGGGGTTTCGGTTAGTGCTA: 5.8 z-score
GAGATTTCCATTATTGCTTCGTGCTAG: 0.7 z-score
GACGGACTGGGGTTTCGTGACGTGCTA: 0.765 z-score
TTTCCCATGAGTCTCAATATGTGCTAG: 1.67 z-score
GACGGTATCGGTTTCGAGACGTGCTAG: 9.76 z-score
TTGGATTTCGGGTTTCGATTAGTGCTA: 5.92 z-score

Set 2 — method: RNA Bind-n-Seq; molecule type: RNA; medium: in vitro; tested at: 1 µM; notes: whole 134-nt RNA, ends assumed; added: 150 mM KCl; relative to: input library; reading: higher = stronger binding; endpoint: log2 enrichment
Target: Ras GTPase-activating protein-binding protein 1, RRM domain (G3BP1, Homo sapiens, UniProt Q13283)
UniProt Q13283, sequence (whole entry, looked up): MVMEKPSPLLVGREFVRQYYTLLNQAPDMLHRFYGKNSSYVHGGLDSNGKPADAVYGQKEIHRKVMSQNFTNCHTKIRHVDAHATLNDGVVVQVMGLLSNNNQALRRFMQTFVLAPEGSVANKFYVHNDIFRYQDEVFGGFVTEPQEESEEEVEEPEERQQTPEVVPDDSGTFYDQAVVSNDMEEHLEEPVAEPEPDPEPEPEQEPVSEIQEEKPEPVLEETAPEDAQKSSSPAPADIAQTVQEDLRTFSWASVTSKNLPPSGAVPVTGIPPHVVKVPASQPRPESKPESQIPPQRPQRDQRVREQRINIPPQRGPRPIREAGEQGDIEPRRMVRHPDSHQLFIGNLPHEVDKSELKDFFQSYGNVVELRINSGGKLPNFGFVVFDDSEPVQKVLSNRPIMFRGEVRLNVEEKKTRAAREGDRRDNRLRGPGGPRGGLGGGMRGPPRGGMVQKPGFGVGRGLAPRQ
Shared flanks, not repeated: GGGAGUUCUACAGUCCGACGAUC … UGGAAUUCUCGGGUGUCAAGG
CACAGACAACACGCACCCACACAGACACAGAGGGAAGGGGUUGGGAUGAGGACAGGGUGCACAGCAGGGCGGGGUAGGACCCCAGCCCCU: 0.00804
UCAAGUCCUGUGCUACACAUCGUAUGUACCGAAUCGGGCCCGGCCCGGGGCCCGGAAAGUAUUAUGUUACGCCGUUCGGAUCUGCACUUC: -0.743
GGCCCGACCUGAUCGACUUUGAUAAGCUGAAGGACUCCAAUGCCCGGCACAACCUGGAGCACGCAUUCAAUGUGGCUGAGCGCCAGCUGG: -0.192
UCGGAUGGCUUCGCAUUUCCCCAAUACCCCAUUAAACCGUAUCAUCUGAAGAGGAUCCACAGAGCUGUCUUACAUGGUAAUCUAGAGAAA: -0.172
CUCAAGUCCUGUGCUACACAUCGUAUGUACCGAAUCGGGUGGGUGGGUUUGGGAAAGUAUUAUGUUACGCCGUUCGGAUCUGCACUUCCA: 0.657
UUAGUGAAUGUAUAGAAGGAGUAAAGGUAGAGCACAAUCCUGACCUGUCAGUUACUGUCAGCACCAAAAAAUCCCACCAGACAUGGACCU: 0.199
AGUCCUGUGCUACACAUCGUAUGUACCGAAUCGGGGAAAGGGGUGGGGAAAAAGGGGAAAGUAUUAUGUUACGCCGUUCGGAUCUGCACU: 0.914
UGGGAGGUGGAUUUUGUUUAUUUUUUUAGCUCAUUUCCAGGGGUGGAAAUUUUUUUUUAAUAUGUGUCAUGAAUAAAGUUGUUUUUGAAA: 1.51
UGGGAGGUGGAUUUUGUUUAUUUUUUUAGCUCAUUUCCAGGGGUGGGAAUUUUUUUUUAAUAUGUGUCAUGAACAAAGUUGUUUUUGAAA: 1.19
UCCUGUGCUACACAUCGUAUGUACCGAAUCGGCCCCCCGGGGCCCCCCGGGCCCCCCGGGAAAGUAUUAUGUUACGCCGUUCGGAUCUGC: -0.481
CUCAAGUCCUGUGCUACACAUCGUAUGUACCGAAUCGGAGGAGGUUUUUUUGGAAAGUAUUAUGUUACGCCGUUCGGAUCUGCACUUCCA: -0.195
UGUAUCCCUGUUUCUUUUCUCCCUACAGAAACAUAUGAGGAUUUUGAUACCAGGAUACUUGAGGUAGGCAUGCAGAAUUAAAUACCUGGU: -0.166
ACCAUGCAGGUGGGCAUCUUUGGGAAGUGGGGCAAGGGGGGGAUAGGGAGGGGGGUAACACUUUGGGAACAGGGGGUCCCAGGUCGUUUC: 0.769
UCCUGUGCUACACAUCGUAUGUACCGAAUCGGGGUUUUUUUGGGGUGGGGUUUUUGGGGAAAGUAUUAUGUUACGCCGUUCGGAUCUGCA: 0.552

Set 3 — method: RNA Bind-n-Seq; molecule type: RNA; medium: in vitro; tested at: not given; notes: RNA with constant flanks, ends assumed; relative to: input RNA pool; reading: higher = stronger binding; endpoint: bound/input enrichment
Target: RING finger protein unkempt homolog, zinc fingers 1-6, GST-SBP tag (UNK, Homo sapiens, UniProt Q9C0B0, residues 30-357)
Shared flanks, not repeated: GGGAGUUCUACAGUCCGACGAUC … CAACAGAGGAUUGAGCAUCA
Target sequence (chain): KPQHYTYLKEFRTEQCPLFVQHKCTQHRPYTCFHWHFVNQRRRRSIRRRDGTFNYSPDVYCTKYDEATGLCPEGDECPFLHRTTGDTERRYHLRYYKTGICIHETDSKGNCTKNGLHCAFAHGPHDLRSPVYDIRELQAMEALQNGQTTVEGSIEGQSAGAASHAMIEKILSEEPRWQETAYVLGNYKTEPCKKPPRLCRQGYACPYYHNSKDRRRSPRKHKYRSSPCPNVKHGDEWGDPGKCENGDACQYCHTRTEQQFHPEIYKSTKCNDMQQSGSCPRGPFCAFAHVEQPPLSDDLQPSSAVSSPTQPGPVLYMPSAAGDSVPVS
AAUUUACAGCCUCUUUCUGAAAGGCUGACACUUCUUGCCAUUUUCGUAUCAACUUUUCUCUUCCGCCUGACAUGGCAAUUUAACCAGUUCAUGAUGCUGCUGCAGGCACUGGUGCUGUUC: 0.266 ratio
GAAGGAGACGGCGAGGGUGAGACCUAUUACUACGAAUACCCCUACUACGAAGACCCCGAAGACCCCGGGAAGGAGCCCACCCCCAGCAAGAAGCCCGUGGAAGCUGCCAAAGAAACCACA: 0.24 ratio
GAUGUUCCACCUGCUCAGAUCUAUCCUCUCCCUAAGCAACAGAACCUUCCUAAGAGACCUACCCGUUUGCCUUUGAACACCAAAAAUUCAACAAAAGAACCCCGGCUAAAAUUUGGCAAC: 0.463 ratio
GAUAUCCCACUGUUCCCCGUGCAGACAAAAUACAUGGAUGUGGUCAAGGAGCGAAUCCGUUCCGCUCGACAGAUUGAGAAAUCUGAGUAUCGGAACUUCCAGGCUUGCCUGCACAACUCU: 0.0936 ratio
AUGGUGCAGAACGUGAGCUUCAAAUAUACGAAAGACGGGCCUUGCAUCUACAAUAAUCCCGAAUUUGGUAUUGAUCUUGACACACGAGUGGCUCUGGUAGGACCCAAUGGAGCAGGGAAG: 0.456 ratio
CUCCUUUACUUCCCAGAGAACUUCACAGAGACUCUGUCCUUCCAUGCAAAGGCUUCCUGAAACCGGGAGACUGACUGAGUAGCUCAUUCUUGUGACUUACAGUGCCAACAUUUAAAAAAG: 0.434 ratio
GAUGAGGCCCAGAAGCCUUACCUGGUACAACGGAGAGGAGCUGAAUUUGCUUUGACAACUACCGUAAAGCAUUUUGGUGGUGAAAUGGCAGUGAAGUUGCCACAUCUCUGGGAUGCUAUG: 0.0705 ratio
CAUCUCCUCGUCCGACCUCACAGGCCGACAAGAUACCUCUCGCAUGUCCACCUCACAGAACCGCAUUCCUUUCGAACACCACGGCAAGUAGCUGCUCGUCUCCCAUCGGAAGGCAGCACU: 0.241 ratio
AUCUAAACUUAGAUGGAGUUGGUCAAAUGAGGGAACAUCUGGGUUAUGCCUUUUUUAAAGCCGUUUUCUUUAGGAACUGUCAGCAUGUUGUUGUUGAAGUGUGGAGUUGUAACUCUGCGU: 0.205 ratio
GUGUUCUGUUUUAUUUUGUUUUUUCACUUAUUCCUCAUAACAGUUUGUGAAACCGGUAUGUCCGCCCUUUUAUGAAUUGGCCAGAGAGGAUGAGUGGUCGGCCUAGGUCAUAUGUCUAGG: 0.387 ratio
UUGCCUGAAAAUGAAGAUGAAUUGGAGAGCACCAAUAGACGCUAUACCAAGAGAGACUGCCGCACUUUUCUCAGAACUAGCGAGACGGGCAUUGUGGAUCAGGUUAUGGUAACUCUCAAU: 0.724 ratio

Set 4 — method: RNA Bind-n-Seq; molecule type: RNA; medium: in vitro; tested at: 365 nM; relative to: no-protein control; reading: higher = stronger binding; endpoint: RBNS enrichment (R)
Target: RNA binding protein fox-1 homolog 2, RRM domain, GST-SBP tag (RBFOX2, Homo sapiens, UniProt O43251-10, residues 100-194)
Notes: natural RNA segment, single round, ends assumed
Shared flanks, not repeated: GGGAGUUCUACAGUCCGACGAUC … UGGAAUUCUCGGGUGCCAA
Residues (chain): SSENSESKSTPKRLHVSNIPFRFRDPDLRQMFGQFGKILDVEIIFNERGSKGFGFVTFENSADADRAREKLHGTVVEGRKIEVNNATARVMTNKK
UGGGACAGCCCCUUGAAGCAUUCUCCCUCAGUAUUACCUACCCUGUGCCACUGGCCUGACCCUCGAGACAGCUCAAGGAUCCGUGGUGUGGCCACCUGCCAGACCCCCAA: 0.98
UCAAAACAUAUUUUUUUUCAGGUGGUCUUUUUUGUGUCUGGCUUGCUGAGUGUAAAAGUUGUUAUCUGGACGAUCUGUCUCUCUGCUCCAAAGAAAUUUUGGAGUGAGUG: 0.519
CAUGCUCUUUGCUUCUGUCUAUGUGGAAAUCUCCGUUUGCAGCCAAAAUCUGGGGGCUGCCACUGUACUUAACAUCUUCAUUUGAAGCCUUUCAGAUUUCCAUAAAGCCA: 0.441
GUUUUGUUAGGCUUUGAGUGUCUAUUCGGUUCCUAUCAAAGCUAGUGUGUAUUCCUUUCCACUACAGAAGAACCAUCACUCUCAUGGGUGUCCCAGCCUCCAGCAAGGGC: 0.25
AUUUUGGCACCAGCGUCAAGACAAAUAAUAUCCUCUCCCAUUAUUUUCAUAAGUAACACAGAUUCCCUGAUUUUUAAAAACUAAAAAUACAGCUAAACCUUUCUUAUGUA: 0.254
UGAGGAGUAAACCUCUCUGGCACACUGAGCAUGGUCAGGGCAUUGGUCAGAGGGACAGAGCAAGGAAUGCAUCCUGAGCCCACAGCUUUGACCACUGUGAUCCAGAAGAG: 0.907
CUGAGGAGUUCGAGCAGGGCAGUCAGAUUUUUAAAGUUUUGUACAGUUUUCCUUUGUAUUCACUUCCAUUUUUACUUAAUAACUGACUUGUUGGUGGCUCUUAUUUCUGA: 0.8
CUGAGGCCUGUGGAAAUAAACCUUUAUGUACUUAAAGUUAUACAGAAAAUAGAAUAAAGUUAAUACCAAACUUGCUUAGUUGUUUACCUGUGAUAUUGGCUGUACAGAAA: 0.375
UGCCUCCAGCUCCAAGGACUCUGCCUACAGGAGUGUGCCUUGGGGCUGAAAGGCCAUGCAAACACAACAAACUAAUAACUCAGUCCCAAAGCACCCUGCAGCCCUGCAGA: 0.306
GUGUGGGCAUAGCAUUAGCUGCUUCCUCCCCUCCUGGCACCCACUGUGGCCUGGCAUCGCAUCGUGGUGUGUCAAUGCCACAAAAUCGUGUGUCCGUGGAACCAGUCCUA: 0.42
CCAAGCCUGAGGACAGAGCCGCAUCAAGUCAUCAUCAGCAAGUCAGCCAGCCUGUUUGGUCUGCUUCCCCUUUGCUGGACACCUGCGUCCCUCUCUUGUUUCCUCUCCUC: 0.503
GGGUCCCCCCAGGGAGCUGCCCAUGGCUUUAUUUAUGAACCUGGUUUUCGGGAGUCAGGGGAGGAGAUGACUUUGCUUCUGUGCACAGCCCCGUCUUCCAGGAGCCACAA: 0.406

A few entries again (set 2):
UUAGUGAAUGUAUAGAAGGAGUAAAGGUAGAGCACAAUCCUGACCUGUCAGUUACUGUCAGCACCAAAAAAUCCCACCAGACAUGGACCU: 0.199
AGUCCUGUGCUACACAUCGUAUGUACCGAAUCGGGGAAAGGGGUGGGGAAAAAGGGGAAAGUAUUAUGUUACGCCGUUCGGAUCUGCACU: 0.914
UGGGAGGUGGAUUUUGUUUAUUUUUUUAGCUCAUUUCCAGGGGUGGAAAUUUUUUUUUAAUAUGUGUCAUGAAUAAAGUUGUUUUUGAAA: 1.51
UGGGAGGUGGAUUUUGUUUAUUUUUUUAGCUCAUUUCCAGGGGUGGGAAUUUUUUUUUAAUAUGUGUCAUGAACAAAGUUGUUUUUGAAA: 1.19
UCCUGUGCUACACAUCGUAUGUACCGAAUCGGCCCCCCGGGGCCCCCCGGGCCCCCCGGGAAAGUAUUAUGUUACGCCGUUCGGAUCUGC: -0.481
